Earlier results that unrelated publications cite.
Compare with care: the assays were run in different laboratories. Values after ≈ are worked out from the molar mass of the structure shown.

NC(=O)c1c(F)ccc(OCc2nc3cc(Cl)cnc3s2)c1F — ED50 (Staphylococcus aureus; Smith, mouse, infection; intravenous, single dose): 10 mg/kg
NCCCn1c2ccc([N+](=O)[O-])cc2c(=O)n1Cc1ccccc1 — antiparasitic activity (Trypanosoma cruzi; concentration not given, epimastigotes): active
Cc1ccc2nc(C)c(C(=O)NCc3ccc(C(F)(F)F)cc3)n2c1 — bacterial load reduction (Mycobacterium tuberculosis; mouse acute tuberculosis model; oral, 300 and 500 mg/kg): 2 log CFU
CSCC[C@H](NC(=O)[C@H](CCCNC(=N)N)NC(=O)[C@H](Cc1c[nH]c2ccccc12)NC(=O)[C@H](CCC(N)=O)NC(=O)[C@H](Cc1c[nH]c2ccccc12)NC(=O)[C@H](CCCNC(=N)N)NC(=O)[C@@H](N)CCCNC(=N)N)C(=O)N[C@@H](CCCCN)C(=O)N[C@@H](CCCCN)C(=O)N[C@@H](CC(C)C)C(=O)NCC(=O)NCCCC[C@H](NC(=O)CNC(=O)[C@H](CC(C)C)NC(=O)[C@H](CCCCN)NC(=O)[C@H](CCCCN)NC(=O)[C@H](CCSC)NC(=O)[C@H](CCCNC(=N)N)NC(=O)[C@H](Cc1c[nH]c2ccccc12)NC(=O)[C@H](CCC(N)=O)NC(=O)[C@H](Cc1c[nH]c2ccccc12)NC(=O)[C@H](CCCNC(=N)N)NC(=O)[C@@H](N)CCCNC(=N)N)C(=O)NCCCCCC(N)=O — MBC (Escherichia coli; ATCC 11775): 60 µM (≈ 199 µg/mL)
COc1ccc(NC2=C(O)C(=O)c3ccccc3C2=O)cc1 — parasitemia inhibition (Plasmodium berghei; infected mice; dose not given, day 5; reference: untreated): 66.6%
O=C(Nc1ccccc1-c1ccc(Br)cc1)c1nccnc1C(F)(F)F — EC80 (Botrytis cinerea; cucumber): 2 to 10 mg a.i./L
CSCC[C@H](NC(=O)[C@H](CCCNC(=N)N)NC(=O)[C@H](Cc1c[nH]c2ccccc12)NC(=O)[C@H](CCC(N)=O)NC(=O)[C@H](Cc1c[nH]c2ccccc12)NC(=O)[C@H](CCCNC(=N)N)NC(=O)[C@H](CCCNC(=N)N)NC(=O)[C@H](C)NC(=O)[C@H](CCCCN)NC(=O)[C@@H](N)Cc1ccccc1)C(=O)N[C@@H](CCCCN)C(=O)N[C@@H](CCCCN)C(=O)N[C@@H](CC(C)C)C(=O)NCC(=O)N[C@@H](C)C(=O)NCCCC[C@H](NC(=O)[C@H](C)NC(=O)CNC(=O)[C@H](CC(C)C)NC(=O)[C@H](CCCCN)NC(=O)[C@H](CCCCN)NC(=O)[C@H](CCSC)NC(=O)[C@H](CCCNC(=N)N)NC(=O)[C@H](Cc1c[nH]c2ccccc12)NC(=O)[C@H](CCC(N)=O)NC(=O)[C@H](Cc1c[nH]c2ccccc12)NC(=O)[C@H](CCCNC(=N)N)NC(=O)[C@H](CCCNC(=N)N)NC(=O)[C@H](C)NC(=O)[C@H](CCCCN)NC(=O)[C@@H](N)Cc1ccccc1)C(=O)NCCCCCC(N)=O — MBC (Escherichia coli; ATCC 25922): 24 µM (≈ 99.5 µg/mL)
Cc1nc(N(C)C(=O)Nc2ccc(N3CCOCC3)cc2)sc1S(=O)(=O)N(C)C — EC50 (herpes simplex virus 2; viral replication): 1500 nM
O=C(Nc1ccccc1-c1cc(F)cc(F)c1)c1nccnc1C(F)(F)F — EC80 (Botrytis cinerea; cucumber): 5 to 20 mg a.i./L
Cc1nc(N(C)C(=O)Cc2ccc(-c3cccnc3)cc2)sc1S(N)(=O)=O — EC50 (herpes simplex virus 1; viral replication): 5 nM
NS(=O)(=O)c1ccc(CCN/C=C2\C(=O)Oc3ccccc3C2=O)cc1 — inhibition zone diameter (Shigella flexneri; concentration not given): 9 mm
O=C(CCCCCCCCCN=C=S)CC(=O)N[C@H]1CCOC1=O — inhibition of pyocyanin production (Pseudomonas aeruginosa; PAO1; concentration not given): ~50%
O=C(Nc1ccccc1-c1ccc(Cl)c(F)c1)c1nccnc1C(F)(F)F — EC80 (Botrytis cinerea; cucumber): 2 to 10 mg a.i./L
C[C@@](CCn1ccc(-c2ccccc2)cc1=O)(C(=O)NO)S(C)(=O)=O — MIC90 (Klebsiella pneumoniae; 98 clinical isolates): 16 µg/mL (≈ 43.9 µM)
CCCCCCCCCCCCCCCCOCCOP1(=O)COC(Cn2cnc(N)nc2=O)CO1 (stereo not shown) — selectivity index (herpes simplex virus; reference: cytotoxicity over antiviral activity): 1160
Cc1nc(N(C)C(=O)Cc2ccc(-c3ccccc3)cc2)sc1S(=O)(=O)NCC(F)(F)F — EC50 (herpes simplex virus 2; viral replication): 150 nM
C/C=C/CNC(=N)NCCCCCCCCN1CCCCCCCCNC(=N)NC1=O — MIC50 (Candida tropicalis): 1.25 µg/mL (≈ 2.87 µM)
O=C(Nc1ccccc1-c1ccc(F)cc1)c1nccnc1C(F)(F)F — EC80 (Puccinia triticina; wheat): 20 to 100 mg a.i./L
Cc1ccc(/N=N/c2c(C)c(C(=O)Nc3ccccc3)c(N)n(-c3ccccc3)c2=O)cc1 — MIC (Candida albicans): 7.81 µg/mL (≈ 17.9 µM)
O=C(Nc1ccccc1-c1cccc(Cl)c1)c1nccnc1C(F)(F)F — EC80 (Puccinia triticina; wheat): 0.5 to 2 mg a.i./L
Cc1cccnc1-n1cccc1C(=O)c1ccc(F)cc1 — IC50 (Leishmania amazonensis; promastigotes): 16900 nM
Cc1nc(N(C)C(=O)Cc2ccc(-c3ccccn3)cc2)sc1S(N)(=O)=O — EC50 (herpes simplex virus 1; viral replication): 20 nM
O=C(Nc1ccccc1-c1ccc(Cl)cc1)c1nccnc1C(F)(F)F — EC80 (Botrytis cinerea; cucumber): 2 to 10 mg a.i./L
O=C(Nc1ccccc1-n1ncc2ccccc21)c1cccnc1Cl — inhibition (Rhizoctonia solani; fungal growth; in vitro; 50 mg/L): 75%
O=C(Nc1ccccc1-c1ccc(Cl)c(Cl)c1)c1nccnc1C(F)(F)F — EC80 (Blumeria graminis; barley): 2 to 10 mg a.i./L
CCN(CC)c1ccc2nc3c4ccccc4/c(=N/c4ccncc4)cc-3oc2c1 — mice cured (Plasmodium berghei; ANKA, mouse; oral, 3 × 30 mg/kg): 80%
Cc1ncccc1C(=O)Nc1cccc2c1C(C)CC2(C)C (stereo not shown) — EC80 (Puccinia triticina; wheat): 1 to 10 mg a.i./L
Cc1cccc(C)c1NC1=C(O)C(=O)c2ccccc2C1=O — parasitemia inhibition (Plasmodium berghei; infected mice; dose not given, day 5; reference: untreated): 0%

Repeated from above:
CSCC[C@H](NC(=O)[C@H](CCCNC(=N)N)NC(=O)[C@H](Cc1c[nH]c2ccccc12)NC(=O)[C@H](CCC(N)=O)NC(=O)[C@H](Cc1c[nH]c2ccccc12)NC(=O)[C@H](CCCNC(=N)N)NC(=O)[C@H](CCCNC(=N)N)NC(=O)[C@H](C)NC(=O)[C@H](CCCCN)NC(=O)[C@@H](N)Cc1ccccc1)C(=O)N[C@@H](CCCCN)C(=O)N[C@@H](CCCCN)C(=O)N[C@@H](CC(C)C)C(=O)NCC(=O)N[C@@H](C)C(=O)NCCCC[C@H](NC(=O)[C@H](C)NC(=O)CNC(=O)[C@H](CC(C)C)NC(=O)[C@H](CCCCN)NC(=O)[C@H](CCCCN)NC(=O)[C@H](CCSC)NC(=O)[C@H](CCCNC(=N)N)NC(=O)[C@H](Cc1c[nH]c2ccccc12)NC(=O)[C@H](CCC(N)=O)NC(=O)[C@H](Cc1c[nH]c2ccccc12)NC(=O)[C@H](CCCNC(=N)N)NC(=O)[C@H](CCCNC(=N)N)NC(=O)[C@H](C)NC(=O)[C@H](CCCCN)NC(=O)[C@@H](N)Cc1ccccc1)C(=O)NCCCCCC(N)=O — MBC (Escherichia coli; ATCC 25922): 24 µM (≈ 99.5 µg/mL)
O=C(Nc1ccccc1-n1ncc2ccccc21)c1cccnc1Cl — inhibition (Rhizoctonia solani; fungal growth; in vitro; 50 mg/L): 75%
O=C(Nc1ccccc1-c1cc(F)cc(F)c1)c1nccnc1C(F)(F)F — EC80 (Botrytis cinerea; cucumber): 5 to 20 mg a.i./L
O=C(Nc1ccccc1-c1ccc(F)cc1)c1nccnc1C(F)(F)F — EC80 (Puccinia triticina; wheat): 20 to 100 mg a.i./L
